Assay results of several laboratories.
Each line is one published result; not all experiments were run side by side.
Target: Interleukin-1 receptor-associated kinase 1 (IRAK1, Homo sapiens, UniProt P51617)

Structure (SMILES)	assay	setting	scale	endpoint	result
CNC(=O)C1CCN(c2cc(C)c(F)cc2NC(=O)c2ccc(-c3cc(O)ccc3C)c(C)c2)CC1	binding, competition with immobilised ligand	1 µM		remaining binding	85%
C=CC(=O)N1CCCC(n2c(=O)c3ncccc3n(Cc3ccc(Oc4ccccc4)cc3)c2=O)C1 (centres unmarked)	cell-free assay, competition with immobilised ligand	1 µM		remaining binding	77%
COc1cc(Nc2nc(C)cc(-c3cnn4nc(OC)ccc34)n2)cc(C(F)(F)F)c1	inhibitor	1 µM	relative to: control	remaining activity	91%
O=C=[N][Ru-4]123([n]4c5ccc(O)cc5c5c6c(c7cc(F)c[n+]1c7c54)C(=O)NC6=O)[S+]1CC[S+]2CC[S+]3CC1 (centres unmarked)	enzyme activity	100 nM, human enzyme, added: 10 µM ATP	relative to: untreated	remaining activity	97%
Nc1ncc2c(n1)-c1c([nH]c3ccc(C4=CCOCC4)cc13)CCC2	binding, competition with immobilised ligand	1 µM		remaining binding	90%
COc1c(Cl)cccc1Nc1c(-c2ccncc2C#C[C@@]2(C)CCCN2C(=O)/C=C/CN(C)C)[nH]c2c1C(=O)NCC2	binding, competition with immobilised ligand	3 µM		remaining binding	85%
Nc1ncc(-c2cc(-c3cnn(CC(F)(F)F)c3)ncc2F)nc1C(=O)NC1CNCC(F)C1 (centres unmarked)	enzyme activity	1 µM	relative to: DMSO control	remaining activity	99.6%
COc1ccc(O)cc1-c1c[nH]c2ncc(-c3cncc(C(=O)N(C)C)c3)cc12	binding, competition with immobilised ligand	0.2 µM		inhibition	6.66%
Cc1cccc(O[C@H]2CCC[C@@H](C(C)CNCc3ccncc3)C2)c1 (relative stereo)	enzyme activity, inhibitor	1 µM		inhibition	-5%
NC(=O)[C@@H](O)C[C@H]1CCc2sc3ncnc(O[C@H]4CC[C@H](N5CCOCC5)CC4)c3c21	enzyme activity, inhibitor	10 µM		inhibition	83%
C=CC(=O)Nc1cccc(-c2cnc3[nH]cc(C(=O)NC(C)(C)C)c3n2)c1	enzyme activity, inhibitor	0.1 µM		inhibition	-3%
CNC(=O)C[C@H](Cc1ccc(C#N)cc1)NC(=O)c1cc(-c2ccc(CN[C@H](C)c3ccc(C)cc3)o2)ccc1Cl	enzyme activity, inhibitor	1 µM		activity vs control	97%
COc1c(OCCCN2CCOCC2)ccc2c1N=C(NC(=O)c1cnc(N)nc1)N1CCN=C21	kinase activity, inhibitor	1 µM	relative to: untreated control	remaining activity	96%
C=C1C[C@]2(C(=O)OC)C=C(C(=O)Nc3cccc(C(=O)Nc4ccc(Nc5nccc(-c6cccnc6)n5)c(C)c4)c3)C(=O)[C@H]1C2	binding, competition with immobilised ligand	1 µM		remaining binding	86%
CC(C)=CC1OC(C)(C)C2C=C3C(=O)C(Cl)=CC(O)C3C3C(O)C4OC4C(=O)C132 (centres unmarked)	cell-free assay, competition with immobilised ligand	10 µM		remaining binding	72%
C=CC(=O)N1CCc2ccc(-n3c(=O)ccc4cnc5ccc(-c6cnn(C)c6)cc5c43)cc21	KINOMEscan	1 µM	relative to: DMSO control	remaining binding	100%
COC(=O)[C@@]1(C)C=C(C(=O)Nc2cccc(C(=O)Nc3ccc(Nc4nccc(-c5cccnc5)n4)c(C)c3)c2)C(=O)CC1	enzyme activity, inhibitor, radiometric	1 µM		remaining activity	85%

A few entries again:
Structure (SMILES)	assay	setting	scale	endpoint	result
C=C1C[C@]2(C(=O)OC)C=C(C(=O)Nc3cccc(C(=O)Nc4ccc(Nc5nccc(-c6cccnc6)n5)c(C)c4)c3)C(=O)[C@H]1C2	binding, competition with immobilised ligand	1 µM		remaining binding	86%
NC(=O)[C@@H](O)C[C@H]1CCc2sc3ncnc(O[C@H]4CC[C@H](N5CCOCC5)CC4)c3c21	enzyme activity, inhibitor	10 µM		inhibition	83%
